Published values of several laboratories.
Parts stem from different laboratories: compare values within a part only.
UniProt P10721, sequence (whole entry, unmodified, looked up): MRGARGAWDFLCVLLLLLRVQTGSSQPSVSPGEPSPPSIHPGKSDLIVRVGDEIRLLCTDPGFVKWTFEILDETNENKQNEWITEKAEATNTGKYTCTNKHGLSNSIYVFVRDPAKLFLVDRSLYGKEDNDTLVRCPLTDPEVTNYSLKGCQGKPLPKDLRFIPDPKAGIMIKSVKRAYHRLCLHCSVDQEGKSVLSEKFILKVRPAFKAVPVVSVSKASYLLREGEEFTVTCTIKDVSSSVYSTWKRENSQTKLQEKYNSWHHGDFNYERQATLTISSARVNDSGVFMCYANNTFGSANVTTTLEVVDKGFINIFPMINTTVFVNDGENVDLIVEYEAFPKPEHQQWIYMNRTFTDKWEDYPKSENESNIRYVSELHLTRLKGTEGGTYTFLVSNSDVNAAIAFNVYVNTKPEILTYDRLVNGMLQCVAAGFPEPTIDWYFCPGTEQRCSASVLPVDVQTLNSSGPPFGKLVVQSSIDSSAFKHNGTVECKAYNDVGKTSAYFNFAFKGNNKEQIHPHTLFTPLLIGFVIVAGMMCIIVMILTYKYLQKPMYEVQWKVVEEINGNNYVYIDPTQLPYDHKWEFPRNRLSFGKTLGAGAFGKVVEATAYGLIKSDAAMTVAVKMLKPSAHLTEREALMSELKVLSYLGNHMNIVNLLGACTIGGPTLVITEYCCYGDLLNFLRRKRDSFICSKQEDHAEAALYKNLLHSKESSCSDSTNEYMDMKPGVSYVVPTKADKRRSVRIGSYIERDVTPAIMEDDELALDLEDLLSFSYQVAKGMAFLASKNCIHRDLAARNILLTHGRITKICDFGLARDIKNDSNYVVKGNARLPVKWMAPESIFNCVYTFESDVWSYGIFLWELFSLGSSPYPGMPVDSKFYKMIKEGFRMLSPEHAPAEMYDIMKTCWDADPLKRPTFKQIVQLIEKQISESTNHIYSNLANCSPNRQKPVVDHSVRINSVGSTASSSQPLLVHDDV
UniProt P51957, sequence (whole entry, looked up): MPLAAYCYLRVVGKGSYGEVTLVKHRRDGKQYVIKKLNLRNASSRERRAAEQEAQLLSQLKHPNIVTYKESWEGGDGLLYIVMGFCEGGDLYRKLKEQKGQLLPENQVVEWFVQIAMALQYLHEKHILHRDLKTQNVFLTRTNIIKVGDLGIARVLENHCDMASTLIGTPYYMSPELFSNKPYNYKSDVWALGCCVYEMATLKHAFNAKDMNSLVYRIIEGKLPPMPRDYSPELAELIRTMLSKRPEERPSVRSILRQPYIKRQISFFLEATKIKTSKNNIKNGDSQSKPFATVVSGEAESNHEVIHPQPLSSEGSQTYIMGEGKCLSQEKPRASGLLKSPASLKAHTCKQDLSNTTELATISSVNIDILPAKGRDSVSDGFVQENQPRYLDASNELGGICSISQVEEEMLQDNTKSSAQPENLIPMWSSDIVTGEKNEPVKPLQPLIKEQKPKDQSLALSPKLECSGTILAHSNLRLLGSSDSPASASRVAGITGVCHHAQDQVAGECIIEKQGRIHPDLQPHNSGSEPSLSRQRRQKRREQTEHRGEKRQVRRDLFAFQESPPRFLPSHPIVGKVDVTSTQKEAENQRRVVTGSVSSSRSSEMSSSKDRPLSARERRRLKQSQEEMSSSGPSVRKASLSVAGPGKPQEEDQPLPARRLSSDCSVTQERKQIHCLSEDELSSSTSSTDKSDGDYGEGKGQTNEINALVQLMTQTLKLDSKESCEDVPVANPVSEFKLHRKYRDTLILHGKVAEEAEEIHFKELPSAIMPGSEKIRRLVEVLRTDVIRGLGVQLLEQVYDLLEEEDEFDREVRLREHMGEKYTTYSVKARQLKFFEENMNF
UniProt P50750, sequence (whole entry, looked up): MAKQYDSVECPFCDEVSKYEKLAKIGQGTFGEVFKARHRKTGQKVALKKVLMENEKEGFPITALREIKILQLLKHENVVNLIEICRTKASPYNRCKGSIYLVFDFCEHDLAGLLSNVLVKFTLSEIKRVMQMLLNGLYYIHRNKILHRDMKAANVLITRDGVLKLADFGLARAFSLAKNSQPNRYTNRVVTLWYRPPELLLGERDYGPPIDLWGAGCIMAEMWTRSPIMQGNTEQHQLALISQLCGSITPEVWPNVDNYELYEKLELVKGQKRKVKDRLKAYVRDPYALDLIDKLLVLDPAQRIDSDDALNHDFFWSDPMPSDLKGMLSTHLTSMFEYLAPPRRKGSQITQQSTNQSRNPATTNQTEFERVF
UniProt P78362, sequence (whole entry, looked up): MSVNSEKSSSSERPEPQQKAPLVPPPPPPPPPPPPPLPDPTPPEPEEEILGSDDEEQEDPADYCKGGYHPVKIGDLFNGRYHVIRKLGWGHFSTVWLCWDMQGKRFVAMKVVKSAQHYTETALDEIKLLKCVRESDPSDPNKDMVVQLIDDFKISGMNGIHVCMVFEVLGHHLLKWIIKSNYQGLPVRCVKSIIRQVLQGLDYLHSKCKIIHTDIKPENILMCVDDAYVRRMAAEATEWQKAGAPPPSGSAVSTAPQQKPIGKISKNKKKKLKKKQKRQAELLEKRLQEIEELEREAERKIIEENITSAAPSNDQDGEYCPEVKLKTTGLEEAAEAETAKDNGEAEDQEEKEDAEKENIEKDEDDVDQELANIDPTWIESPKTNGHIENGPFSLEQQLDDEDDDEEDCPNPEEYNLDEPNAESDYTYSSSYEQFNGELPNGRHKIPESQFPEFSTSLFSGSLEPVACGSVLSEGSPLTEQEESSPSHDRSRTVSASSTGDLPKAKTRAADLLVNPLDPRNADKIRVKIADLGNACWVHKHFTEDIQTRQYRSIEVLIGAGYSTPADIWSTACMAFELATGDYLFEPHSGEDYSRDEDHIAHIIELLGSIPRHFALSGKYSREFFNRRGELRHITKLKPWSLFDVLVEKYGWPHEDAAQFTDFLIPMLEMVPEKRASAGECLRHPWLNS
UniProt Q9UBE8, sequence (whole entry, looked up): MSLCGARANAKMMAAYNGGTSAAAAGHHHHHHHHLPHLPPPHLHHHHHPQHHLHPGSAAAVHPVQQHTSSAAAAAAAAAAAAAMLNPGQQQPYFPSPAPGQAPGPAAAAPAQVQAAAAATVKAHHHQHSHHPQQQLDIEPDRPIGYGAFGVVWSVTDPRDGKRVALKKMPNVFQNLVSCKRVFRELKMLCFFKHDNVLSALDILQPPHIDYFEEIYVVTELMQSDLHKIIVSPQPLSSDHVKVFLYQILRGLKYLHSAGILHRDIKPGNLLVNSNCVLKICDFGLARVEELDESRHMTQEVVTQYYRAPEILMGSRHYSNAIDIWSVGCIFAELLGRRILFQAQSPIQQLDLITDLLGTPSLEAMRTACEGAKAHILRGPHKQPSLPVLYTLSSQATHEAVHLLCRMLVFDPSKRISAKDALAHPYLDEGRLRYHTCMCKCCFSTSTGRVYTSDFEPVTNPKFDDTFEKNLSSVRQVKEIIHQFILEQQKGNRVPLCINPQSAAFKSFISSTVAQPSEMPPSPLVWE

Sample 1 — mode: agonist
Target: Beta-1 adrenergic receptor (ADRB1, Homo sapiens, UniProt P08588)
UniProt P08588, sequence (whole entry, looked up): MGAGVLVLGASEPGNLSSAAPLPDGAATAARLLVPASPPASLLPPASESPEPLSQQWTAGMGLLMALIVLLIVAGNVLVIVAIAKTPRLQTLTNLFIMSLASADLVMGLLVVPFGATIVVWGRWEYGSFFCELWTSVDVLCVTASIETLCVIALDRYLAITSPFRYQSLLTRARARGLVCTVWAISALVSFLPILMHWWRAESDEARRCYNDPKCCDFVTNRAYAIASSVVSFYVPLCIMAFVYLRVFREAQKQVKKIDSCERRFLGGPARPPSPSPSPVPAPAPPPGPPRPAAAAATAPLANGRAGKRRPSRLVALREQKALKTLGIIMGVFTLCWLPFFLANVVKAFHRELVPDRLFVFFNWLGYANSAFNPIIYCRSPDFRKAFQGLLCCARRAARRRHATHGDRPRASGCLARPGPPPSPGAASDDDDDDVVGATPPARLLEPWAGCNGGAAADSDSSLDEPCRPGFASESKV
For C[C@@H]([C@@H](O)c1ccc(O)cc1)N1CCC(O)(c2ccccc2)CC1, the EC50 was at least 100 µM.
For N#CC(c1ccccc1)c1cnn(-c2ccccc2)c(=O)c1Cl (stereo not drawn), the EC50 was at least 100 µM.
COC(=O)CCC(=O)N[C@@H](C)C(=O)N[C@@H](C)C(=O)N1CCC[C@H]1C(=O)N[C@H](C(=O)Nc1ccc2c(C)cc(=O)oc2c1)C(C)C gave an EC50 of at least 100 µM.
The EC50 of CN(C)c1ccc(CNC2(Cc3cc(-c4cccc(O)c4)on3)COC2)cc1 is reported as at least 100 µM.
COc1ccc2c(Cn3nnc(-c4ccc(Br)cc4)n3)cc(=O)oc2c1 has an EC50 of at least 100 µM.
The EC50 of Cc1cc(=O)oc2cc(NC(=O)[C@H](CCC(=O)O)NC(=O)[C@H](CC(C)C)NC(=O)[C@H](CC(C)C)NC(=O)OCc3ccccc3)ccc12 is reported as at least 100 µM.
For CCN1CCN(Cc2ccc(Nc3ncc(F)c(-c4cc(F)c5nc(C)n(C(C)C)c5c4)n3)nc2)CC1, the EC50 was at least 100 µM.
COc1cc(OC)c2ccc(=O)oc2c1 gave an EC50 of at least 100 µM.
For COc1cc(CN2CCC(C)(C#N)CC2)ccc1OCC(O)CN1CCOCC1 (stereo not drawn), the EC50 was at least 100 µM.
For CC(C)Cc1cc(CC2(NCc3ccc(N(C)C)cc3)COC2)no1, the EC50 was at least 100 µM.
The EC50 of Nc1ncnc2nc(-c3ccc(N4CCOCC4)nc3)cc(-c3cccc(Br)c3)c12 is reported as at least 100 µM.
O=C1COCC2(CN(c3cnccn3)C2)CN1c1cccnc1 gave an EC50 of 4.47 µM.
For C[C@H](O)c1onc(-c2ccccc2)c1C(=O)N1CCOCC1, the EC50 was at least 100 µM.
With Cc1cc(C)n(C2CN(Cc3cccc(OCC(O)CN4CCOCC4)c3)C2)n1 (stereo not drawn) the EC50 was at least 100 µM.
O=C(C1CCOCC1)N1CCCn2nc(C(O)c3ccccc3)cc2C1 (stereo not drawn) has an EC50 of at least 100 µM.
c1ccc(-n2ncc3c(N4CCNc5ccccc5C4)ncnc32)cc1 gave an EC50 of at least 100 µM.
The EC50 of Cc1noc2c(NC3CCC(O)CC3)cc(-c3ccc(F)cc3)nc12 (stereo not drawn) is reported as at least 100 µM.

Sample 2 — observed: cell-free assay; method: competition with immobilised ligand; tested at: 1 µM
SMILES: O=C(NC[C@@H]1[C@H]2CN(C(=O)OCc3cc(C(F)(F)F)cc(C(F)(F)F)c3)C[C@@H]12)c1ccc2[nH]nnc2c1
NEK10 (Homo sapiens, UniProt Q6ZWH5) — remaining binding: 73%.
The remaining binding was 87% (Tyrosine-protein kinase ABL1, non-phosphorylated (ABL1, Homo sapiens, UniProt P00519)).
It gave 85% for remaining binding (ROCK1 (Homo sapiens, UniProt Q13464)).
The remaining binding was 98% (Tyrosine-protein kinase ABL1, phosphorylated (ABL1, Homo sapiens, UniProt P00519, M351T)).
PIK3C2B (Homo sapiens, UniProt O00750) — remaining binding: 65%.
For MAP3K14 (Homo sapiens, UniProt Q99558): remaining binding read 77%.
The remaining binding was 96% (ERBB3 (Homo sapiens, UniProt P21860)).
For DDR1 (Homo sapiens, UniProt Q08345): remaining binding read 83%.
The remaining binding was 78% (TAOK1 (Homo sapiens, UniProt Q7L7X3)).
The remaining binding was 85% (HIPK1 (Homo sapiens, UniProt Q86Z02)).
It gave 81% for remaining binding (BMX (Homo sapiens, UniProt P51813)).
KIT (Homo sapiens, UniProt P10721, L576P) — remaining binding: 92%.
For SNRK (Homo sapiens, UniProt Q9NRH2): remaining binding read 77%.
It gave 99% for remaining binding (MAP3K11 (Homo sapiens, UniProt Q16584)).
The remaining binding was 93% (KIT (Homo sapiens, UniProt P10721, D816V)).
The remaining binding was 98% (TNIK (Homo sapiens, UniProt Q9UKE5)).
The remaining binding was 100% (SRPK2 (Homo sapiens, UniProt P78362)).
LATS2 (Homo sapiens, UniProt Q9NRM7) — remaining binding: 86%.
It gave 75% for remaining binding (STK38 (Homo sapiens, UniProt Q15208)).
PIKFYVE (Homo sapiens, UniProt Q9Y2I7) — remaining binding: 100%.
It gave 100% for remaining binding (NLK (Homo sapiens, UniProt Q9UBE8)).

Sample 3 — SMILES: C=CCc1ccc(O)c(-c2ccc(O)c(CC=C)c2)c1
ANO1 del476-501/F628A: Anoctamin-1 (ANO1, Homo sapiens, UniProt Q5XXA6, del476-501/F628A)
UniProt Q5XXA6, sequence (whole entry, unmodified, looked up): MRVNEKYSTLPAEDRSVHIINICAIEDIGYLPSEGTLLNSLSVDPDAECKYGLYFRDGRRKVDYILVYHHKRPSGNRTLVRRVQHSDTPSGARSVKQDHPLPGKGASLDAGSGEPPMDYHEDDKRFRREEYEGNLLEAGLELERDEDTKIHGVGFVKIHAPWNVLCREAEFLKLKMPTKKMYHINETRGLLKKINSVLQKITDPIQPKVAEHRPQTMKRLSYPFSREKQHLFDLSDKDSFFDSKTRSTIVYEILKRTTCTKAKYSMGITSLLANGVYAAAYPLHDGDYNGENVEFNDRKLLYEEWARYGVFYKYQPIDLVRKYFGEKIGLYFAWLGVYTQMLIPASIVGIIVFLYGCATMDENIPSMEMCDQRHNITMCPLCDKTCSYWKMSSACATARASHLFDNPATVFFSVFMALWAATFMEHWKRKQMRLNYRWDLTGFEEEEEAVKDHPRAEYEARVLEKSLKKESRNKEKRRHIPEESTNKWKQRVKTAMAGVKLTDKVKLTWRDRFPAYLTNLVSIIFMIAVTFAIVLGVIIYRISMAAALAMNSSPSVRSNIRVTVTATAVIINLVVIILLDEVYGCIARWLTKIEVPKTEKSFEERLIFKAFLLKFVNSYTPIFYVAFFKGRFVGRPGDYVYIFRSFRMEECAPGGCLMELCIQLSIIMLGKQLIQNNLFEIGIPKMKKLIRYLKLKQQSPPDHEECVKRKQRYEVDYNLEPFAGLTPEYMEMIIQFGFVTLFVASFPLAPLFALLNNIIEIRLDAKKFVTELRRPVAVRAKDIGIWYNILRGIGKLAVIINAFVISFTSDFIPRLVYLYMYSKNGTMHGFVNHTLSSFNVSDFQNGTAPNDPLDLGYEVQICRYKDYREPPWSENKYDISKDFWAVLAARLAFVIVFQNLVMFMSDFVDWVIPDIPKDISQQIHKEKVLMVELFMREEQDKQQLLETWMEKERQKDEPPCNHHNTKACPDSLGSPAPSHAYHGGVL
ANO1 del476-501: Anoctamin-1 (ANO1, Homo sapiens, UniProt Q5XXA6, del476-501)
For ANO1 del476-501/F628A; chloride current, whole-cell voltage clamp; 30 µM, I-V at -100 mV, with: 4 µM Ca2+: normalized current read -0.458.
It gave -0.282 for normalized current (Anoctamin-1 (ANO1, Homo sapiens, UniProt Q5XXA6, del476-501/E649A); ion current, inside-out patch clamp; 10 µM, E623A mutant at -40 mV).
The normalized current was 0.272 (ANO1 del476-501/F628A; chloride current, whole-cell voltage clamp; 30 µM, I-V at 60 mV, with: 4 µM Ca2+).
For ANO1 del476-501/F628A; chloride current, whole-cell voltage clamp; 1 µM, concentration-response at -80 mV, with: 4 µM Ca2+: normalized current read -0.694.
ANO1 del476-501; chloride current, whole-cell voltage clamp; 1 µM, wild type, concentration-response at 100 mV, with: 4 µM Ca2+ — normalized current: 0.921.
It gave -0.0964 for normalized current (ANO1 del476-501/F628A; chloride current, whole-cell voltage clamp; 30 µM, concentration-response at -20 mV, with: 4 µM Ca2+).
For ANO1 del476-501; chloride current, whole-cell voltage clamp; 3 µM, wild type, I-V at 20 mV, with: 4 µM Ca2+: normalized current read 0.152.
It gave -0.244 for normalized current (ANO1 del476-501; chloride current, whole-cell voltage clamp; 10 µM, wild type, concentration-response at -100 mV, with: 4 µM Ca2+).
It gave 0.14 for normalized current (ANO1 del476-501/F628A; chloride current, whole-cell voltage clamp; 100 µM, I-V at 60 mV, with: 4 µM Ca2+).
The normalized current was 0.749 (ANO1 del476-501/F628A; chloride current, whole-cell voltage clamp; 1 µM, concentration-response at 80 mV, with: 4 µM Ca2+).

Sample 4 — SMILES: COc1ccc(COc2ccc(Cc3cnc(N)nc3N)cc2OC)cc1; observed: enzyme activity; mode: inhibitor; tested at: 0.5 µM; baseline: control
The remaining activity was 107% (CHEK1 (Homo sapiens, UniProt O14757)).
The remaining activity was 87.4% (MAP2K6 (Homo sapiens, UniProt P52564)).
KIT (Homo sapiens, UniProt P10721) — remaining activity: 106%.
The remaining activity was 96% (MAPK13 (Homo sapiens, UniProt O15264)).
For NEK4 (Homo sapiens, UniProt P51957): remaining activity read 92.2%.
It gave 96.5% for remaining activity (AKT3 (Homo sapiens, UniProt Q9Y243)).
CSNK1A1 (Homo sapiens, UniProt P48729) — remaining activity: 97.9%.
It gave 92.6% for remaining activity (LRRK2 (Homo sapiens, UniProt Q5S007)).
For MAP3K10 (Homo sapiens, UniProt Q02779): remaining activity read 96.4%.
It gave 120% for remaining activity (MAP4K2 (Homo sapiens, UniProt Q12851)).
The remaining activity was 98.3% (PRKG1 (Homo sapiens, UniProt Q13976)).
The remaining activity was 87.8% (PRKCD (Homo sapiens, UniProt Q05655)).
It gave 105% for remaining activity (CSNK2A1 (Homo sapiens, UniProt P68400)).
It gave 116% for remaining activity (PLK2 (Homo sapiens, UniProt Q9NYY3)).
MAPK12 (Homo sapiens, UniProt P53778) — remaining activity: 102%.
It gave 94.6% for remaining activity (WNK2 (Homo sapiens, UniProt Q9Y3S1)).
The remaining activity was 92.5% (Cyclin-dependent kinase 9, with cyclin T1 (CDK9, Homo sapiens, UniProt P50750)).
PRKCI (Homo sapiens, UniProt P41743) — remaining activity: 91.6%.

Repeated from above (sample 3):
For ANO1 del476-501/F628A; chloride current, whole-cell voltage clamp; 30 µM, I-V at -100 mV, with: 4 µM Ca2+: normalized current read -0.458.
It gave -0.282 for normalized current (Anoctamin-1 (ANO1, Homo sapiens, UniProt Q5XXA6, del476-501/E649A); ion current, inside-out patch clamp; 10 µM, E623A mutant at -40 mV).
The normalized current was 0.272 (ANO1 del476-501/F628A; chloride current, whole-cell voltage clamp; 30 µM, I-V at 60 mV, with: 4 µM Ca2+).
For ANO1 del476-501/F628A; chloride current, whole-cell voltage clamp; 1 µM, concentration-response at -80 mV, with: 4 µM Ca2+: normalized current read -0.694.
ANO1 del476-501; chloride current, whole-cell voltage clamp; 1 µM, wild type, concentration-response at 100 mV, with: 4 µM Ca2+ — normalized current: 0.921.
It gave -0.0964 for normalized current (ANO1 del476-501/F628A; chloride current, whole-cell voltage clamp; 30 µM, concentration-response at -20 mV, with: 4 µM Ca2+).
For ANO1 del476-501; chloride current, whole-cell voltage clamp; 3 µM, wild type, I-V at 20 mV, with: 4 µM Ca2+: normalized current read 0.152.
It gave -0.244 for normalized current (ANO1 del476-501; chloride current, whole-cell voltage clamp; 10 µM, wild type, concentration-response at -100 mV, with: 4 µM Ca2+).
